{"data": "Assay results from different studies", "note": "Parts stem from different laboratories: compare values within a part only."}
{"data": "Series 1", "target": "Prothrombin, mature alpha-thrombin (F2, Homo sapiens, UniProt P00734)", "technique": "aptamer microarray, sandwich", "molecule type": "DNA with 2'F-ANA", "medium": "in vitro", "tested at": "200 nM", "notes": "whole 15-mer aptamer, many near background", "with": "Cy3 exosite-II aptamer, 400 nM", "reading": "higher = stronger binding", "oligonucleotide": "GGTTGGTGTGGTTGG"}
{"Modification": "2'F-ANA at 1 3 4 5 8 12 13 14 15", "mean fluorescence intensity [a.u.]": 46.6}
{"Modification": "2'F-ANA at 5 7 8 9 10 11 14", "mean fluorescence intensity [a.u.]": 71.5}
{"Modification": "2'F-ANA at 1 2 4 5 6 9 10 11 14 15", "mean fluorescence intensity [a.u.]": 49.2}
{"Modification": "2'F-ANA at 8 11 13 15", "mean fluorescence intensity [a.u.]": 447}
{"Modification": "2'F-ANA at 3 4 6 7 8 11 12 13 14 15", "mean fluorescence intensity [a.u.]": 298}
{"Modification": "2'F-ANA at 1 2 5 6 7 9 11 12 13 14", "mean fluorescence intensity [a.u.]": 54.2}
{"Modification": "2'F-ANA at 1 4 9 13", "mean fluorescence intensity [a.u.]": 74.9}
{"Modification": "2'F-ANA at 1 3 4 8 9 12 13 14", "mean fluorescence intensity [a.u.]": 71.8}
{"Modification": "2'F-ANA at 4 5 8 9 12 14", "mean fluorescence intensity [a.u.]": 45.1}
{"data": "Series 2", "target": "RING finger protein unkempt homolog, zinc fingers 1-6, GST-SBP tag (UNK, Homo sapiens, UniProt Q9C0B0, residues 30-357)", "technique": "RNA Bind-n-Seq", "molecule type": "RNA", "medium": "in vitro", "tested at": "not given", "notes": "RNA with constant flanks, human and mouse sites, ends assumed", "baseline": "input RNA pool", "reading": "higher = stronger binding", "constant ends, left off below": "GGGAGUUCUACAGUCCGACGAUC … CAACAGAGGAUUGAGCAUCA", "UniProt Q9C0B0, sequence (30-357, looked up)": "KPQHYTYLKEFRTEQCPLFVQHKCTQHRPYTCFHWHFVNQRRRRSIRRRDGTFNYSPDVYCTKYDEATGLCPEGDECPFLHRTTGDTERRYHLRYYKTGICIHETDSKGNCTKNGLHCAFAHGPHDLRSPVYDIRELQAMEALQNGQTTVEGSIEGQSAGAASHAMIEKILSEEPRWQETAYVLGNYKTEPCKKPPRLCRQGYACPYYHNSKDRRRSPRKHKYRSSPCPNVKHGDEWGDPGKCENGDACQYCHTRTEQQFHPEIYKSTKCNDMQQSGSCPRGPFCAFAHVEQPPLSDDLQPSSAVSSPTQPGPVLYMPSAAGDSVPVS"}
{"Oligonucleotide": "AAUCCAGUGGAUAUCUUGACCUACGUGGCUUGGAAGAUAAGUGGUUUUCCCAAAAACCGUGUUAUUGGAAGCGGUUGCAAUCUGGAUUCAGCCCGAUUCCGUUACCUAAUGGGGGAAAGG", "bound/input enrichment [ratio]": 0.23}
{"Oligonucleotide": "CGUAGUCUCCUGCAGCGUCUGGGGUUUCCGUUGCAGUCCUCGGAACCAGGACCUCGGCGUGGCCUAGCGAGUUAUGGCGACGAAGGCCGUGUGCGUGCUGAAGGGCGACGGCCCAGUGCA", "bound/input enrichment [ratio]": 0.13}
{"Oligonucleotide": "ACGGAGGCGGGUUCUACAGAGACGUAGGCUGUCAGGGAGUGUUUAUUUCGCGUCCGCUUCUGUUUCUCCGCGCCCCUGUGCUGCCCCGACUCACAUACUCGUCCAGAACCGGCCUCAGCC", "bound/input enrichment [ratio]": 0.0909}
{"Oligonucleotide": "CAGGAGCGCGCAGGCCAAGGGCACGACAUUUUAUAAGUAUGUCAUGGAAAGUCGUGAUCCGAGUACAAAUGUUAUUCUAUUGGAGGACACUGCAGCUGUCUUAGGAGUGAUAAUAGCGGC", "bound/input enrichment [ratio]": 3.17}
{"Oligonucleotide": "GGGCUCCAGGACUCUCAAGCUGGCAUCAUAUUAUUUGUUAUUUAAAAGACACAAUUAUUUUAGGUAGAUCUUUUUUUUUAAUGAGGUGGGGUAAGGCUGUGACUUUUGAUCUAAACAAAA", "bound/input enrichment [ratio]": 17.1}
{"Oligonucleotide": "GUUCAUUUCUUCAUUCUGUUUGUAUCUAGCGAAGCUGAAUGUCAGAAGCCCCUCUGUCCACACACAAAGUCUGCAUGUAUUGGUCGGUGGUCCUGCCCCUAAAGUCAAGCCCCUACAUCA", "bound/input enrichment [ratio]": 0.201}
{"data": "Series 3", "target": "Ras GTPase-activating protein-binding protein 1, C-terminal RGG region (G3BP1, Homo sapiens, UniProt Q13283)", "technique": "RNA Bind-n-Seq", "molecule type": "RNA", "medium": "in vitro", "tested at": "1 µM", "notes": "whole 134-nt RNA, ends assumed", "with": "150 mM KCl", "baseline": "input library", "reading": "higher = stronger binding", "constant ends, left off below": "GGGAGUUCUACAGUCCGACGAUC … UGGAAUUCUCGGGUGUCAAGG", "UniProt Q13283, sequence (whole entry, looked up)": "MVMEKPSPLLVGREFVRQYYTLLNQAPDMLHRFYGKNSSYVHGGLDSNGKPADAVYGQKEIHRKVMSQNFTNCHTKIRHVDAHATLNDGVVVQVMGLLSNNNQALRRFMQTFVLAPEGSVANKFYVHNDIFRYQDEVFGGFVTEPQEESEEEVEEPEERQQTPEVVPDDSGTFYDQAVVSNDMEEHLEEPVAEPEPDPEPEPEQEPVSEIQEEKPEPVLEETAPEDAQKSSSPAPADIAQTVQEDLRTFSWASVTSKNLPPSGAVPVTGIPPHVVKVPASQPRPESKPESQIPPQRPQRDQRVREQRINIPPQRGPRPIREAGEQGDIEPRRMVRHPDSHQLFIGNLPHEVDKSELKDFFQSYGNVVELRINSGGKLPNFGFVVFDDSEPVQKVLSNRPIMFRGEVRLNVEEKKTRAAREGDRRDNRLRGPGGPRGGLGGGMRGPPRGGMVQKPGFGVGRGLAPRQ"}
{"Oligonucleotide": "UGCUGGCAGCCAAGCAGCAGCAGGAGAUGCUGGCAGCCAAGCGGCAGCAGGAGCUGGAGCAGCAGCGGCAGCGGGAGCAGCAGCGGCAGG", "log2 enrichment": -1.21}
{"Oligonucleotide": "CCUGUGCUACACAUCGUAUGUACCGAAUCGGGGUUUGGGGUUUUUUUGGGGAAAAAGGGGAAAGUAUUAUGUUACGCCGUUCGGAUCUGC", "log2 enrichment": 0.847}
{"Oligonucleotide": "AGUCCUGUGCUACACAUCGUAUGUACCGAAUCGGGUUUUUGGUUUUUGGGUUUUUGGAAAGUAUUAUGUUACGCCGUUCGGAUCUGCACU", "log2 enrichment": -1.28}
{"Oligonucleotide": "UGGCCCUGGUGGCAUGUGGGGAGGAAGAGGUGGCCUCAUGGAUCGUGGUGGUCCCGGUGGAAUGUUCAGAGGUGGCCGUGGUGGAGACAG", "log2 enrichment": 1.86}
{"Oligonucleotide": "AAGUCCUGUGCUACACAUCGUAUGUACCGAAUCGGGAAAAAGGGAAAAAGGGUGGGAAAGUAUUAUGUUACGCCGUUCGGAUCUGCACUU", "log2 enrichment": 1.52}
{"Oligonucleotide": "GUCCUGUGCUACACAUCGUAUGUACCGAAUCGGGGUUUUUUUGGGGUUUGGGGUGGGGAAAGUAUUAUGUUACGCCGUUCGGAUCUGCAC", "log2 enrichment": 1.99}
{"Oligonucleotide": "CCUCAAGUCCUGUGCUACACAUCGUAUGUACCGAAUCGGGGUGGGGUGGGUGGAAAGUAUUAUGUUACGCCGUUCGGAUCUGCACUUCCA", "log2 enrichment": 1.32}
{"Oligonucleotide": "UCAAGUCCUGUGCUACACAUCGUAUGUACCGAAUCGGGUUGGGGUUGGGUUGGGGAAAGUAUUAUGUUACGCCGUUCGGAUCUGCACUUC", "log2 enrichment": 2.83}
{"Oligonucleotide": "UGGCCCUGGUGGCAUGCGGGGAGGAAGAGGUGGCCUAAUGGAUCGUGGUGGUCCCGGUGGAAUGUUCAGAGGUGGCCGUGGUGGAGACAG", "log2 enrichment": 2.4}
{"Oligonucleotide": "UGUGCUACACAUCGUAUGUACCGAAUCGGGGCCCCCCCGGGGCCCCCCCGGCCCCCCCGGGGAAAGUAUUAUGUUACGCCGUUCGGAUCU", "log2 enrichment": -2.52}
{"Oligonucleotide": "CAAGUCCUGUGCUACACAUCGUAUGUACCGAAUCGGGUUUGGGUGGGUUUUUGGGAAAGUAUUAUGUUACGCCGUUCGGAUCUGCACUUC", "log2 enrichment": 1.8}
{"data": "Single results of other studies"}
{"Substance": "PhoQ, residues 284 288 289 292 302 303 QWQEDG", "target": "PhoP, residues 12 14 15 18 19 GHCSL (Escherichia coli, UniProt P23836)", "test": "Sort-seq, refers to: YFP reporter", "test system": "E. coli", "conditions": "PhoQ-PhoP variant library, with: 10 µM Mg2+", "how to read": "baseline: high Mg2+ state, higher = stronger signaling", "endpoint": "fold induction", "value": 10.2}
